# Experimental data from different studies.
# Protocols differ between the studies behind these lines. ± gives the spread as reported.
# Formate-nitrite transporter: Formate-nitrite transporter (Plasmodium falciparum, UniProt O77389)
# Chain of UniProt O77389 (whole entry, looked up): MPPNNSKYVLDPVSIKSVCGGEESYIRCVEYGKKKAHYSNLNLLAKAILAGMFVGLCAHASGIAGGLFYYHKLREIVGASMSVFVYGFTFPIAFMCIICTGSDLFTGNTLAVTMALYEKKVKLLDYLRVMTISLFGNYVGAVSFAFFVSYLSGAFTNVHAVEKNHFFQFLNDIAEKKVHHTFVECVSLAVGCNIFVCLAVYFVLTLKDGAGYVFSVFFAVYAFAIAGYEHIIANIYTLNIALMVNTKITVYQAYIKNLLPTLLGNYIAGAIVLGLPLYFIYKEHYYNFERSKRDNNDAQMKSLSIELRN
# SIRT5: NAD-dependent protein deacylase sirtuin-5, mitochondrial (SIRT5, Homo sapiens, UniProt Q9NXA8)
# Chain of UniProt Q9NXA8 (whole entry, looked up): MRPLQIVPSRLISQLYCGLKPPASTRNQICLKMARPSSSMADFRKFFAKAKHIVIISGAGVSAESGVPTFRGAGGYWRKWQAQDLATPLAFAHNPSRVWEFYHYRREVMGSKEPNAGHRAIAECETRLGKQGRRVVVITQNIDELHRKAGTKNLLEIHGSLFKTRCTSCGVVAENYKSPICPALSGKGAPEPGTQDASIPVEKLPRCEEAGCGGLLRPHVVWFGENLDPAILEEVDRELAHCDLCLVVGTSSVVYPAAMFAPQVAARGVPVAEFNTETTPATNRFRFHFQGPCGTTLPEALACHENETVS
# blaNDM-1: Metallo-beta-lactamase type 2 (blaNDM-1, Klebsiella pneumoniae, UniProt C7C422)
# Chain of UniProt C7C422 (whole entry, looked up): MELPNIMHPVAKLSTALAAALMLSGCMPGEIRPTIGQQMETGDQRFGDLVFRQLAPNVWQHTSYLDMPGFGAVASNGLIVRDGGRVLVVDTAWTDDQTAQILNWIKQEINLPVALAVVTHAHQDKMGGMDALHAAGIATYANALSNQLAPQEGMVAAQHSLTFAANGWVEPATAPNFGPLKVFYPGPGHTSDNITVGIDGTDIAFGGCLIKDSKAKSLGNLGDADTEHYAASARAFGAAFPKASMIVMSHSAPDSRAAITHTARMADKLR
# CYP2C9: Cytochrome P450 2C9 (CYP2C9, Homo sapiens, UniProt P11712)
# Chain of UniProt P11712 (whole entry, looked up): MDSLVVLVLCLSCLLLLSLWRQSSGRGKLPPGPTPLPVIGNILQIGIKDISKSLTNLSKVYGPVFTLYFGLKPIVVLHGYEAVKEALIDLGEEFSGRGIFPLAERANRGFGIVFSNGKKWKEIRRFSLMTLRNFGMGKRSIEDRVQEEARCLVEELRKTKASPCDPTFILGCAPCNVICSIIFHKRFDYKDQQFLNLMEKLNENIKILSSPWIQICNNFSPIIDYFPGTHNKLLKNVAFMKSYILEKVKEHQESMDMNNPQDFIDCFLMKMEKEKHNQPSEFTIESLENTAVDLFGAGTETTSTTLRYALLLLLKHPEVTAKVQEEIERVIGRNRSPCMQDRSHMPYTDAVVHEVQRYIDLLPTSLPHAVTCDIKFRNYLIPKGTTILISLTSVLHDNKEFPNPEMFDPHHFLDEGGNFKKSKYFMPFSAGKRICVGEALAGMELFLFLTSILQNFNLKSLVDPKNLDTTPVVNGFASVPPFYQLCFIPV
# SIRT2: NAD-dependent protein deacetylase sirtuin-2 (SIRT2, Homo sapiens, UniProt Q8IXJ6)
# Chain of UniProt Q8IXJ6 (whole entry, looked up): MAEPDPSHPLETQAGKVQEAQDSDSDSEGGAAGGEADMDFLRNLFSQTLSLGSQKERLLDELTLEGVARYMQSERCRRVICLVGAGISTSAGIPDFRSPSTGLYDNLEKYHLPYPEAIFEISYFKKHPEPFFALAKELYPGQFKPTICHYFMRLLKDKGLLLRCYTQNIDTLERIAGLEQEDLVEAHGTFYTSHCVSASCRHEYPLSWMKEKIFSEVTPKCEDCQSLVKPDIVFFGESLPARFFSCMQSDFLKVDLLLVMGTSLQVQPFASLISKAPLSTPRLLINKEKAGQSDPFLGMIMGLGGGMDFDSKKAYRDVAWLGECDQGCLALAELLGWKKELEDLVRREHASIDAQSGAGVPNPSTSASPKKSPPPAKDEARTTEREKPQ
# lasR: Transcriptional activator protein LasR (lasR, Pseudomonas aeruginosa, UniProt P25084)
# Chain of UniProt P25084 (whole entry, looked up): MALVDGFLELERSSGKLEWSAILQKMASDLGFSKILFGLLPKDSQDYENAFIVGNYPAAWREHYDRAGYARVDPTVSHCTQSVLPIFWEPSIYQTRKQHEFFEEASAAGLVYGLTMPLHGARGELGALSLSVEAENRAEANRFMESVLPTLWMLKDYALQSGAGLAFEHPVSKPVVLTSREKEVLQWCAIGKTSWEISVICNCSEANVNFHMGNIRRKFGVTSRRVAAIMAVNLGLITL
# Chain of UniProt P61073 (whole entry, looked up): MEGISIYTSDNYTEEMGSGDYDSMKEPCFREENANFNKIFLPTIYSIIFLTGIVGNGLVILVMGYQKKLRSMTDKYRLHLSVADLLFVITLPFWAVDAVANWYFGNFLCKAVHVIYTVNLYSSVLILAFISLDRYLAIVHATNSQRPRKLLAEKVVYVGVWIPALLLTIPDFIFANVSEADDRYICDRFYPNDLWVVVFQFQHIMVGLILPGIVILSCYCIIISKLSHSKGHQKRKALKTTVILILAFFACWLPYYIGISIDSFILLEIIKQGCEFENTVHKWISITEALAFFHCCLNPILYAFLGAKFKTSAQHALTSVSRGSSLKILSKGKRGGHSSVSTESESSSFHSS
# Chain of UniProt P37288 (whole entry, looked up): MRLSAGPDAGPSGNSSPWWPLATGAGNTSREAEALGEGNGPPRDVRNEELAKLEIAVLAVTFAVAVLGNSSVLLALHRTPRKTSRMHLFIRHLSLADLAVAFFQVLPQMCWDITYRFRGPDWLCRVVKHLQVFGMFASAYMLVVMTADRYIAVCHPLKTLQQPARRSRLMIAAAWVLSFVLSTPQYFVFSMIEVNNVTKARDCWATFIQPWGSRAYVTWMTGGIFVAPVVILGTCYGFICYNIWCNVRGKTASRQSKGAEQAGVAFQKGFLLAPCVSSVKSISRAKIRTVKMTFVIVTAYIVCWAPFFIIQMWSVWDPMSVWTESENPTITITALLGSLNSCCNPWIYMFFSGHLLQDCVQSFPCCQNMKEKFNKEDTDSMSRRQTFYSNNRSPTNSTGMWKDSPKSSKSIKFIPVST
# Chain of UniProt P19801 (whole entry, looked up): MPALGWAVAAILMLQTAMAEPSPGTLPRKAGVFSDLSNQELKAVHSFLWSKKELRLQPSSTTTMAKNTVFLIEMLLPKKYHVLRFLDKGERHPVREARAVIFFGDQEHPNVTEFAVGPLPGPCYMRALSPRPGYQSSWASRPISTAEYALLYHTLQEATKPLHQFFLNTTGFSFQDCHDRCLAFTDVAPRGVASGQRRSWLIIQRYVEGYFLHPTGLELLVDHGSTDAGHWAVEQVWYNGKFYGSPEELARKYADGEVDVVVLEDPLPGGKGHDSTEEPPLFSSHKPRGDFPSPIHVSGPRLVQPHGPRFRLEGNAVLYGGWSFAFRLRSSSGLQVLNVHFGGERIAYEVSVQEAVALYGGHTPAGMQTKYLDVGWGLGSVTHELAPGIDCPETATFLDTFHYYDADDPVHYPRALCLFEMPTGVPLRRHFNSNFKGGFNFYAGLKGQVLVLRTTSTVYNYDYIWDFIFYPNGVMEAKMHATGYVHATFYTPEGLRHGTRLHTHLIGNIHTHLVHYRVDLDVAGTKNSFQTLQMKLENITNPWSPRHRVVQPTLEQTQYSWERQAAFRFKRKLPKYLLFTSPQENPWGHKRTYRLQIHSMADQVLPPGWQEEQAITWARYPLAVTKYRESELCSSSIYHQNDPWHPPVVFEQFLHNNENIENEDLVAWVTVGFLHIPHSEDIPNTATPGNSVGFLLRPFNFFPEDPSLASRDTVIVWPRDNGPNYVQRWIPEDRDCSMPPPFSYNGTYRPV
# Chain of UniProt P10276 (whole entry, looked up): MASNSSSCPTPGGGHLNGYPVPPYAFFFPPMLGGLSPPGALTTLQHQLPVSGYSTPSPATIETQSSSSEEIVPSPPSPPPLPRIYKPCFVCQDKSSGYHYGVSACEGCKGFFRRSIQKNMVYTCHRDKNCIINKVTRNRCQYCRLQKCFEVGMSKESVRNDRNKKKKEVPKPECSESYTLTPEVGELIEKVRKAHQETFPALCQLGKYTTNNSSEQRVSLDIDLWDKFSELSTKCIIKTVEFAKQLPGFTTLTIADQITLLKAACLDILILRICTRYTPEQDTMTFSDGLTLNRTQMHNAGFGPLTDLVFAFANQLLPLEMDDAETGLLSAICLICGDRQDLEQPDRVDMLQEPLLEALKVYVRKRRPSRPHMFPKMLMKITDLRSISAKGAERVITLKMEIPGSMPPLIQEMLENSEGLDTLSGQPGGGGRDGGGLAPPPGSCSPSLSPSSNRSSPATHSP
# Chain of UniProt P19490 (whole entry, looked up): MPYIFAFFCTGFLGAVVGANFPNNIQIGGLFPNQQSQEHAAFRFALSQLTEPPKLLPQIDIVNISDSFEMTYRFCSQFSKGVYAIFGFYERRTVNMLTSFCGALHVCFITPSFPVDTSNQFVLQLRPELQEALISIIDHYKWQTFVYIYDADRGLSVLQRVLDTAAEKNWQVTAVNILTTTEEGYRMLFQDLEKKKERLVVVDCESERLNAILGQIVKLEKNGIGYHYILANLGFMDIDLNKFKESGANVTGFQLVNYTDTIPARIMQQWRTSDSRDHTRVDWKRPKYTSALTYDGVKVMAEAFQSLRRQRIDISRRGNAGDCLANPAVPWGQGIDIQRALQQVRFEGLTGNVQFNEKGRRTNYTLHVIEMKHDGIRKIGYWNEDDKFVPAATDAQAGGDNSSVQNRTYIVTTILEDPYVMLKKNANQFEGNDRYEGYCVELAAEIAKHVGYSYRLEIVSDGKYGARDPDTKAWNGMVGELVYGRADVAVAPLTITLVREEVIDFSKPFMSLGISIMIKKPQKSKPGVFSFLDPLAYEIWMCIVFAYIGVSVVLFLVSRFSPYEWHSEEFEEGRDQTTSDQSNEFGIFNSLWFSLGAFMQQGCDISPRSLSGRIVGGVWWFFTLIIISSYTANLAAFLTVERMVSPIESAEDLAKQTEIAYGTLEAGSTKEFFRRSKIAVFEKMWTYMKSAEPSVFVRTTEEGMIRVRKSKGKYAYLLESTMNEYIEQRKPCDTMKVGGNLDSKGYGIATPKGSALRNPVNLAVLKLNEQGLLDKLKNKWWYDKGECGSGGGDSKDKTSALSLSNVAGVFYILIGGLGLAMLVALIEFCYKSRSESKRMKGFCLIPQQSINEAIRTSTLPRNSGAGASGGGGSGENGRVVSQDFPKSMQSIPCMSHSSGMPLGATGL
Compound,target,test,system,conditions,IC50
O=C(C=C(O)C(F)(F)C(F)(F)F)c1ccc(NC2CC2)nc1,Formate-nitrite transporter,"L-lactate transport, inhibitor, fluorescence",yeast,"pH 6.8, with: L-lactate 1 mM",0.121 ± 0.012 µM
CN(C)C(=O)[C@@H](NC(=O)c1cc(-c2ccnn2C)ccc1-c1ccc(C(F)(F)F)cc1)c1cccc(C(F)(F)F)c1,"NKG2-D type II integral membrane protein, with ULBP1 (KLRK1, Homo sapiens, UniProt P26718)","ligand binding, inhibitor, cellular TR-FRET displacement",,with: human ULBP1-AF647 at KD,0.4 µM
CCSc1cnn(-c2ccccc2)c(=O)c1Cl,"Disulfide bond formation protein B (Escherichia coli, UniProt P0A6M2, C49V/C8A)","enzyme activity, inhibitor",,,9.12 to 16 µM
COC(=O)Cc1cc2c(cc1C(=O)c1cccc(Br)c1)OCO2,"Gria1 (Rattus norvegicus, UniProt P19490)","glutamate-evoked current, inhibitor, whole-cell patch clamp","HEK293T, homomeric receptor",,5.37 µM
CCN(CC)c1ccc(C(=O)C=C(O)C(F)(F)C(F)(F)F)cn1,Formate-nitrite transporter,"L-lactate transport, inhibitor, fluorescence",yeast,"pH 6.8, with: L-lactate 1 mM",0.228 ± 0.018 µM
Cc1nc(N2CCC(N(C)c3cc(C(=O)NCCN4CCCC4)cnn3)CC2)nc(C)c1CC(C)C,"CYP2C19 (Homo sapiens, UniProt P33261)","enzyme activity, inhibitor",,,> 30 µM
CSCC[C@H]1NC(=O)[C@H](Cc2ccccc2)NC(=O)[C@H](NC(=O)[C@@H](N)CCCCN)CSC(=O)[C@H](C(C)C)NC(=O)[C@H](Cc2ccccc2)NC1=O,"Histidine kinase AgrC (Listeria monocytogenes, UniProt A8E0G3)",agr signalling,,,1.4 µM
N=C(N)NCCC[C@H](NC(=O)[C@H](CCCCNC(=O)c1cncc(OS(=O)(=O)F)c1)NC(=O)CCC[P+](c1ccccc1)(c1ccccc1)c1ccccc1)C(=O)NC1CCC1,SIRT5,"inhibitor, fluorogenic",,"0 h preincubation, non-tagged enzyme 150 nM, with: NAD+ 500 µM",> 200 µM
O=C(O)C1=C[C@H](O)[C@@H](NC(=O)c2ccc(-c3ccccc3)cc2)[C@H]([C@H](O)[C@H](O)CO)O1,"Sialidase-1 (NEU1, Homo sapiens, UniProt Q99519)","enzyme activity, inhibitor",,,> 500 µM
CC(C)C[C@@H](N)C(=O)NCC(=O)N[C@H](C)C(=O)N[C@H](CO)C(=O)N[C@H](Cc1c[nH]c2ccccc12)C(=O)N[C@H](Cc1c[nH]cn1)C(=O)N[C@H](CCCNC(=N)N)C(=O)N1CCC[C@@H]1C(=O)N[C@H](CC(=O)O)C(=O)N[C@H](CCCCN)C(=O)N[C@H](CCCCN)C(=O)N[C@H](CCCNC(=N)N)C(=O)NCCCCCC(=O)N[C@@H](CCCCN)C(=O)N[C@@H](CCCNC(=N)N)C(=O)N[C@@H](CCCCN)C(=O)N[C@@H](CCC(N)=O)C(=O)N[C@@H](CCCNC(=N)N)C(=O)NCC(=O)N1CCC[C@H]1C(=O)NCC(=O)N[C@@H](CCCNC(=N)N)C(=O)N[C@@H](C)C(=O)N[C@@H](Cc1ccccc1)C(N)=O,"CXCR4 (Homo sapiens, UniProt P61073)","cell migration, antagonist",,,6.08 µM
CC1(C)[C@@H]2Cc3nc4c(cc3[C@H]1C2)/C(=C1/c2cc3c(nc2-c2c1cc1c([n+]2[Au-][P+](c2ccccc2)(c2ccccc2)c2ccccc2)C[C@@H]2C[C@H]1C2(C)C)C[C@@H]1C[C@H]3C1(C)C)c1cc2c([n+]([Au-][P+](c3ccccc3)(c3ccccc3)c3ccccc3)c1-4)C[C@@H]1C[C@H]2C1(C)C.O=S(=O)(O)C(F)(F)F.O=S(=O)(O)C(F)(F)F,"Txnrd1 (Rattus norvegicus, UniProt O89049)","enzyme activity, inhibitor",,,0.02 ± 0.002 µM
CC[C@H](C)[C@H](N)C(=O)N[C@@H](CCCNC(=N)N)C(=O)N[C@@H](CCC(N)=O)C(=O)N[C@@H](CCC(=O)O)C(=O)N[C@@H](CCC(=O)O)C(=O)N[C@H](C(=O)N[C@@H](CCC(N)=O)C(=O)N[C@@H](CCC(=O)O)C(=O)N[C@@H](CC(C)C)C(=O)O)C(C)C,"HLA class I histocompatibility antigen, A alpha chain, allele A*02:01 (Homo sapiens, UniProt P04439)","peptide-MHC binding, radioligand competition binding",,,> 70 µM
CC1(C)NC(=O)[C@@H](CC(=O)O)NC(=O)[C@H](CCC(=O)O)NC(=O)[C@H](CCCN)NC(=O)[C@H](C(c2ccccc2)c2ccccc2)NC(=O)[C@@H]2CCCN2C(=O)[C@H]2CCCN2C(=O)[C@H](CC(N)=O)NC1=O,blaNDM-1,"enzyme activity, inhibitor, absorbance",,,303 µM
Cc1ccsc1CNc1ccccc1OC1CC(=O)N1 (centres unmarked),"Uncharacterized hydrolase SAUSA300_2518 (Staphylococcus aureus, UniProt Q2FDS6)","enzyme activity, inhibitor",,,> 50 µM
O=C(O)CCn1c(=O)oc2cc(Cl)c(Cl)cc21,"AVPR1A (Homo sapiens, UniProt P37288)",antagonist,,median value,> 50.1 µM
CC(C)[C@@H]1NC(=O)[C@@H]2CCCN2C(=O)[C@@H](CS)NC(=O)[C@H](CCCCN)NC(=O)[C@H](CCCCN)NC(=O)[C@H](CC(=O)O)NC(=O)[C@H]2CCCN2C(=O)[C@@H]2CCCN2C1=O,blaNDM-1,"enzyme activity, inhibitor, absorbance",,,25.3 µM
Cc1ccc(N2CC3CC(C2)N3)cc1C(=O)NC1(c2ccc3c4c(cccc24)C(=O)N3C)CC1,CYP2C9,"enzyme activity, inhibitor",,,> 50 µM
CNC(=S)NCCCC[C@H](NS(=O)(=O)c1ccc(C(=O)NCc2cn(CCCNc3ccc([N+](=O)[O-])c4nonc34)nn2)cc1)C(=O)N[C@@H](CCCNC(=N)N)C(=O)N[C@@H](CC1CCCCC1)C(=O)N[C@H](CCCCN)C(=O)N[C@@H](CC1CCCCC1)C(N)=O,SIRT2,"enzyme activity, inhibitor, fluorescence",,,0.33 µM
O=C(CN1CN(c2ccccc2)C2(CCN(C(=O)c3cnc4[nH]ncc4c3)CC2)C1=O)NCC(F)(F)F,CYP2C9,inhibitor,,,22 µM
O=C(C=C(O)C(F)(F)C(F)(F)Cl)c1cccnc1,Formate-nitrite transporter,"L-lactate transport, inhibitor, fluorescence",yeast,"pH 6.8, with: L-lactate 1 mM",0.062 ± 0.007 µM
Cc1ccc2c(n1)c(-c1cccc(S(C)(=O)=O)c1)c(C)n2C/C(F)=C/CN,"AOC1 (Homo sapiens, UniProt P19801)","enzyme activity, inhibitor, fluorescence",,,0.041 µM
O=P(O)(O)Oc1cc(-c2cc(OP(=O)(O)O)c(OP(=O)(O)O)c(OP(=O)(O)O)c2)cc(OP(=O)(O)O)c1OP(=O)(O)O,"Type II inositol 1,4,5-trisphosphate 5-phosphatase (Homo sapiens, UniProt P32019)",,,,5.5 ± 0.5 µM
CCCC[C@@H]1NC(=O)[C@@H](CCC(N)=O)NC(=O)[C@H]2CCCN2C(=O)[C@H](CCCCN)NC(=O)[C@@H]2C[C@@H](O)CN2C(=O)[C@H](Cc2ccccc2CN)NC(=O)[C@@H]2CCCN2C(=O)[C@@H](CS)NC1=O,blaNDM-1,"enzyme activity, inhibitor, absorbance",,,129 µM
CC(=O)Nc1ccc(C(=O)C=C(O)C(F)(F)C(F)(F)F)cn1,Formate-nitrite transporter,"L-lactate transport, inhibitor, fluorescence",yeast,"pH 6.8, with: L-lactate 1 mM",0.25 ± 0.02 µM
CCc1nnc(-c2c(OC)cc(-c3cnc4cc(-c5cnn(C)c5)ccn34)cc2OC)o1,CYP2C9,"enzyme activity, inhibitor",,,> 10 µM
CC1(C)CC=C(c2ccccc2)c2cc(/C=C/c3ccc(C(=O)O)cc3)ccc21,"RARA (Homo sapiens, UniProt P10276)",,,,0.0075 µM
CCCN(C)c1ccc(C(=O)C=C(O)C(F)(F)C(F)(F)F)cn1,Formate-nitrite transporter,"L-lactate transport, inhibitor, fluorescence",yeast,"pH 6.8, with: L-lactate 1 mM",0.176 ± 0.019 µM
CC(C)C[C@H](NC(=O)[C@H](Cc1ccc(CN)cc1)NC(=O)[C@H](Cc1ccccc1)N=[N+]=[N-])C(=O)N[C@@H](CC1CCCC2CCCCC21)C(=O)[C@@]1(C)CO1 (some centres unmarked),"PSMB7 (Homo sapiens, UniProt Q99436)","inhibitor, competitive ABPP",Raji cell lysate,constitutive proteasome β2c,0.349 µM
O=C(NCCCC[C@H](NS(=O)(=O)c1cccc(F)c1)C(=O)N[C@@H](Cc1c[nH]c2ccccc12)C(=O)NC1CCC1)c1cncc(OS(=O)(=O)F)c1,SIRT5,"inhibitor, fluorogenic",,"0 h preincubation, His-tagged enzyme 150 nM, with: NAD+ 500 µM",50 ± 16 µM
O=C(C=C(O)C(F)(F)C(F)(F)F)c1ccc(NCc2ccc(F)cc2)nc1,Formate-nitrite transporter,"L-lactate transport, inhibitor, fluorescence",yeast,"pH 6.8, with: L-lactate 1 mM",0.522 ± 0.083 µM
C#CCNC(=O)c1ccc(S(=O)(=O)N[C@@H](CCCCNC(=O)c2cncc(OS(=O)(=O)F)c2)C(=O)N[C@@H](CCCNC(=N)N)C(=O)NC2CCC2)cc1,SIRT5,"inhibitor, fluorogenic",,"pre-incubation 16 h, with: NAD+ 500 µM",9 ± 3.1 µM
CCCCCCCCCC(=O)CC(=O)Nc1ccccc1O,lasR,"reporter gene, antagonist","Escherichia coli, JLD271 with LasR plasmid",with: OdDHL 2 nM,no inhibition
CNC(=S)NCCCC[C@H](NC(=O)CCc1ccccc1)C(=O)N[C@@H](CCCNC(=N)N)C(=O)N[C@@H](CC1CCCCC1)C(=O)N[C@H](CCCCN)C(=O)N[C@@H](CC1CCCCC1)C(=O)N[C@H](CCCNC(=N)N)C(=O)N[C@@H](CC1CCCCC1)C(N)=O,SIRT2,"enzyme activity, inhibitor, fluorescence",,,1.08 µM
O=C(CCCOc1cccc(Br)c1)N[C@H]1CCSC1=O,lasR,"plasI-LVAgfp reporter, antagonist",PAO-JP2 pump-active,with: OdDHL 150 nM,no inhibition
COCCCC1CCCCN1C(=O)Oc1ccc([N+](=O)[O-])cc1 (centres unmarked),"DPP4 (Homo sapiens, UniProt P27487)","enzyme activity, inhibitor, fluorescence",,,> 100 µM
CC(C)(C)C1CCC(c2cc3ccccc3s2)(N2CCCCC2)CC1 (centres unmarked),"Uncharacterized protein (Trypanosoma brucei brucei, UniProt Q386Q8)","enzyme activity, inhibitor, coupled colorimetric",,with: E. coli pyrophosphatase coupling,78 µM
CCCCCCCCCCCCCCCCCC(=O)NC[C@H]1CC[C@H](C(=O)N[C@@H](CCC(=O)NCCCOCCOCCOCCCNC(=O)COCC(=O)N[C@@H](Cc2ccc(O)cc2)C(=O)NC(C)(Cc2ccccc2)C(=O)N[C@@H](CC(C)C)C(=O)N[C@@H](CCCC)C(=O)N[C@@H](CCCNC(=N)N)C(=O)N2CCC[C@H]2C(=O)N[C@@H](CCCNC(=N)NC)C(=O)N[C@@H](CC(N)=O)C(N)=O)C(=O)O)CC1 (some centres unmarked),"Neuromedin-U receptor 2 (Mus musculus, UniProt Q8BZ39)","ligand displacement, radioligand",,cell membranes,0.00026 µM
O=P(O)(O)C(Nc1cccc(Cl)c1Cl)P(=O)(O)O,"polyphosphate kinase 2 (Cytophaga hutchinsonii, UniProt A0A6N4SMB5)","enzyme activity, inhibitor, HPLC",,"30 min, 37 °C, with: 0.04 mM ADP and 0.3 mM polyP",262 µM

# Excerpt of the above:
Compound,target,test,system,conditions,IC50
CC1(C)CC=C(c2ccccc2)c2cc(/C=C/c3ccc(C(=O)O)cc3)ccc21,"RARA (Homo sapiens, UniProt P10276)",,,,0.0075 µM
CC(C)C[C@@H](N)C(=O)NCC(=O)N[C@H](C)C(=O)N[C@H](CO)C(=O)N[C@H](Cc1c[nH]c2ccccc12)C(=O)N[C@H](Cc1c[nH]cn1)C(=O)N[C@H](CCCNC(=N)N)C(=O)N1CCC[C@@H]1C(=O)N[C@H](CC(=O)O)C(=O)N[C@H](CCCCN)C(=O)N[C@H](CCCCN)C(=O)N[C@H](CCCNC(=N)N)C(=O)NCCCCCC(=O)N[C@@H](CCCCN)C(=O)N[C@@H](CCCNC(=N)N)C(=O)N[C@@H](CCCCN)C(=O)N[C@@H](CCC(N)=O)C(=O)N[C@@H](CCCNC(=N)N)C(=O)NCC(=O)N1CCC[C@H]1C(=O)NCC(=O)N[C@@H](CCCNC(=N)N)C(=O)N[C@@H](C)C(=O)N[C@@H](Cc1ccccc1)C(N)=O,"CXCR4 (Homo sapiens, UniProt P61073)","cell migration, antagonist",,,6.08 µM
O=C(CCCOc1cccc(Br)c1)N[C@H]1CCSC1=O,lasR,"plasI-LVAgfp reporter, antagonist",PAO-JP2 pump-active,with: OdDHL 150 nM,no inhibition
